Results of several laboratories.
Every numbered part comes from another study and shows a few of its results, in no order.

Sample 1 — technique: RNA Bind-n-Seq; form: RNA; sample: in vitro; tested at: 20 nM; setting: 6-mer, flanks averaged, single round; together with: 150 mM LiCl; baseline: input library; direction: higher = stronger binding; endpoint: 6-mer enrichment (R)
Target: TAR DNA-binding protein 43, full length, His tag (TARDBP, Homo sapiens, UniProt Q13148, residues 1-414)
CAUGUU: 1.05
ACGUAG: 0.898
CAAGUU: 0.9
CCCUAG: 0.974
GUCGGC: 1.12
AGGUAU: 1.02
UUUUUC: 1.39
GCGGCU: 1.01
GCCGAA: 0.866
CGAGUC: 0.881
ACAAGA: 0.84
GAAGGG: 1.2
UACGCU: 0.843
UGGAGG: 1.24
CGUAUU: 0.942

Sample 2 — technique: RNA Bind-n-Seq; form: RNA; sample: in vitro; tested at: 365 nM; baseline: no-protein control; direction: higher = stronger binding; endpoint: RBNS enrichment (R)
Target: RNA binding protein fox-1 homolog 2, RRM domain, GST-SBP tag (RBFOX2, Homo sapiens, UniProt O43251-10, residues 100-194)
Setting: natural RNA segment, single round, ends assumed
All sequences stand within: GGGAGUUCUACAGUCCGACGAUC … UGGAAUUCUCGGGUGCCAA
Residues (chain): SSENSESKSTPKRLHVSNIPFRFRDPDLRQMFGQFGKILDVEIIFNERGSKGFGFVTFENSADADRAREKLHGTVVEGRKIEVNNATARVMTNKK
CUUGUAUAAAAAGUUGCCAUCUGCCUUAUAGACAAAUGUAGAGAAUUGAUGUUCUUGCUUUGUGUUGUGUUCUGGUAAAGCUUUAAGUGAGUGUCUUACCCCUUUCCUAU: 0.421
GCCUUAAACUGAAAAGUUAAAAAUUGAUGGAUUGUAGCAUUCCCAUAAUCUCCCCCUUCUUUUUUUUUCCUUUGGAAAUGUCCAAUAGUCUAUAUUCCUCUGUCCCGCCC: 0.955
GUUUUUUUCUUUGUACCUGAUGUGAAUUCUAGCAACCUUUGUUAGGAAAAAGCACAGCCUCGAAUGGAGGCAGCCUAAACUCUUGUCUGUCCUCUUCAUGGUGUCUCUUC: 0.557
AGUUUUAAUGUAGAAAGACAUUUACAUAUAAGUCUGUUUAAUUUCAAAGGAGUUUGUGAAAAAAAAUCCAUGGUGAAAAUGAAACAAUGACAUGGUUAAUCUGGAACUUA: 0.435
UUAAUAUAGAUUGAACCAGAAAGGUGACCCCUAGCUGUUGACUUAUUGUCACCCUAAAAAAAAAAAAGGCACAAGGAAAGCUGCCACCUCCCCACCCCUCCUCUUCCUUU: 0.276
GCUUGUGUUGAGUAAAAAGGAGAUGCCCCAAUAUUCAAAGCUGCUAAAUGUUCUCUUUGCCAUAAAGACUCCGUGUUAACUGUGUAAACACUUGGGAUUUUUCUCCUAUG: 0.453
UGGCAGUUUUGACAUCAGCCAGCUGCCCUAAAUAACCCUUCAACGUUUCUUCACUUUUGCAAGGUUCCACAGAGUAAGACAUUGGGUCUAUUCCAGCUCAUUCAUUUUAU: 0.684
GCCUGGAAGAUUCAGGAGCCUGGGCGGCCUUCGCUUACUCUCACCUGCUUCUGAGUUGCCCAGGAGACCACUGGCAGAUGUCCCGGCGAAGAGAAGAGACACAUUGUUGG: 0.386
CUUCUUUCAGCUGUCCCUGUAGCGACAGGUCUAAGAUCUGACUGCCUCCUCCUUUCUCUGGCCUCUUCCCCCUUCCCUCUUCUCUUCAGCUAGGCUAGCUGGUUUGGAGU: 0.355
CAUUUUUUUAAGUGUGCAGGGCAGCCUGGACACAGCUUAGCGUUCUACGUGUAUAGUUCUCCAUGCUCACUAACUCUCCUUCUCUGGGAAGCAGAUGUACAUACUACAUA: 0.368
AAAGUGAACUUAAAAGGACAUGCCCACUGAAUUCAGGUCCUUUGAGUAAAAAAAAAAUCUUCUGCUGCACAUUUUGUUUAAGUGUUACUGUUUCUGCCUGUUAAUGCUGG: 1.14
UCACGGAAAGUUUCUUACUCAUCCCUGUGACUUUGGCUUUAUUUUACAAUAAAACACUGAAAAUGUCCACUUUGUUAGUUGUGAACAUGAGCCCAGGCCUAAGGUGCUGG: 0.249

Sample 3 — technique: protein-binding microarray; form: double-stranded DNA, one strand shown; sample: in vitro; tested at: 2540 nM top; setting: 60-bp whole probe; together with: salmon DNA 0.4 mg/ml; baseline: random background probes; direction: higher = stronger binding; endpoint: fitted relative affinity; all sequences stand within: GCCTAGCAC … GTCTTGATTCGCTTGACGCTGCTG
Target: Interferon regulatory factor 3, full length, phosphomimetic (IRF3, Homo sapiens, UniProt Q14653, residues 1-427, S386D/S396D/S398D/S402D/T404D/S405D)
Chain of UniProt Q14653 (whole entry, unmodified, looked up): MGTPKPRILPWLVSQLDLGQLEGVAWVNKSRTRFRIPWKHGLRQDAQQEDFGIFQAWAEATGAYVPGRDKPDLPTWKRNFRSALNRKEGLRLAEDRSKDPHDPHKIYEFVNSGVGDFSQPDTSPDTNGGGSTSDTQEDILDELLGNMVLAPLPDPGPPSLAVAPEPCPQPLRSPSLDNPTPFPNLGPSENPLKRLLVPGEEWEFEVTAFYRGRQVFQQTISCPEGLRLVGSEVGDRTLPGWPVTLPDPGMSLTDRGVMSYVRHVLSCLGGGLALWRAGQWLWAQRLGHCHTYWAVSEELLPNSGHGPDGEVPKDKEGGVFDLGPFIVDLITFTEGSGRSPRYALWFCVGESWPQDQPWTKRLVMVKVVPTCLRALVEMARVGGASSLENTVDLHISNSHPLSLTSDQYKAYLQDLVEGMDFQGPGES
TCAGGACTGCTTATCCTTTAGTGCTAG: 0.0615 z-score
GATGGTATCGGACTGGGGACGTGCTAG: 0.967 z-score
TTAGGTTTCCTTTCCCTTTTGTGCTAG: 10.9 z-score
TTAGAAATGGGGTTTCGATTAGTGCTA: 1.57 z-score
GACGGTATCGACCCTGGGGACGTGCTA: 0.118 z-score
GACGATATCAGGACTGGAGACGTGCTA: 0.445 z-score
GACGGTATCATTCTCCTGACGTGCTAG: 4.45 z-score
GACAGTATCGGTTTCGGGACGTGCTAG: 7.81 z-score
GACGGACTGGGGTATCGGGGCGTGCTA: -0.731 z-score
GACGGTTTCGGCTTCGGGACGTGCTAG: 3.86 z-score
GACGAACTGGGTATCGGGACGTGCTAG: 0.0495 z-score
CTTTCTTTATGCACTCTCTACGTGCTA: 4.96 z-score
TTAGGACTCCTTATCCTTTAGTGCTAG: 1.26 z-score
TTAGGACTGGACACCGGGTTAGTGCTA: -0.719 z-score
TACGGTTTCGGTATCGGGACGTGCTAG: 8.06 z-score
TTAGGTATCGTTTTCGGTTAGTGCTAG: 6.02 z-score
TTAGGTATCCTTATCCGTTAGTGCTAG: 5.15 z-score
TTAGATTGCAGTCTCGATTAGTGCTAG: 0.94 z-score
GACGGTCTCCTTTTTCTGACGTGCTAG: 4.43 z-score
AAATGATTGGTTGAACATGAGTGCTAG: -0.249 z-score
GACGGTCTCGTTATCGGGACGTGCTAG: 1.1 z-score
TTAGGTATCGGGACTGGCTTAGTGCTA: 1.25 z-score
GACGGTCTCAGTTTCGGGACGTGCTAG: 3.65 z-score
GACGGTATGGACTTTCGGGACGTGCTA: 0.217 z-score
GTCCCCTGTCGGGAGGTCAGGTGCTAG: 0.094 z-score

Sample 4 — technique: RNA Bind-n-Seq; form: RNA; sample: in vitro; tested at: not given; baseline: input RNA pool; direction: higher = stronger binding; endpoint: bound/input enrichment
Target: RING finger protein unkempt homolog, zinc fingers 1-6, GST-SBP tag (UNK, Homo sapiens, UniProt Q9C0B0, residues 30-357)
Chain of UniProt Q9C0B0 (30-357, looked up): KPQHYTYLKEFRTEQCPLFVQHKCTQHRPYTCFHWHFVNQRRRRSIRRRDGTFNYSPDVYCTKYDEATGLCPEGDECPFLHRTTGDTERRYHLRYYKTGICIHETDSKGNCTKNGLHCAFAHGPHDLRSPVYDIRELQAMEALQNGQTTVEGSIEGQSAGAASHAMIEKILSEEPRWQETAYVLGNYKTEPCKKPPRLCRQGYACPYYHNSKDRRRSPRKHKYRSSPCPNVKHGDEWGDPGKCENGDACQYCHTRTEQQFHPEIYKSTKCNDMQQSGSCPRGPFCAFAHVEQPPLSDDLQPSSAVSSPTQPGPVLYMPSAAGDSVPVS
Setting: RNA with constant flanks, human-mouse chimeric sites, ends assumed
All sequences stand within: GGGAGUUCUACAGUCCGACGAUC … CAACAGAGGAUUGAGCAUCA
ACAGUUAUACACUGUUGUUUCAUUUUCUUGUAUGUUUGUAGUGUCUGCUUGCCUGUGACUUCUGGUAAAAUAAAAUAAGCCUUUGAAAAUAUUUUAGCAUGGUAUUUAACAUUUUCUAAA: 2.1 ratio
UAUAUCACCAAUGUCCUACAAAAUCCUGACUUGGCUCUGAGAAUGGCUGUACGUAAUAACUUAGCUGGUGCUGAAGAACUCUUUGCCCGGAAAUUUAAUGCUCUCUUUGCCCAGGGAAAC: 0.347 ratio
GAAACUAUUCCUAAAGAGGAGAGAGCUGAGAAGGAUGCUCGGAGAUCAUCUCUUGAGAAACAUAGAAAAGAAAAGCCUUUUAAAACCGGGAGAGGCAGAAUUUCCACUCCUGAAAGAAAA: 0.43 ratio
AGAAUCUUGGGACUGUUUUACUUAAUUGGUCAUUGAUAUCUCAACAAACAUGGAGAUAAGAUUAGAAAUCUUGACAUCAACAGGUAUCAAGCAGAAAAAACCAUGGCCACGUGUCUCCUG: 0.132 ratio
CUGGCCUGGCCCUCCCCAGGGGCCUCCUUUCGUAUAGUCACUGCUUCUGCAUCAGAUAUUUUUAGCUGCAACUCCCUGCAGGGUGGGGCACCCAUUUCAGGCAGAAGGUUUUGGUACCCU: 1.16 ratio
UACUACUAUGAUGGUGAUAUUGGAAAUUAUUAUUAUGGCCAGGGUCAUCCCAUGAAGCCUCAUAGAAUCCGCAUGACUCAUAACUUGCUGCUAAAUUAUGGUUUAUACCGAAAAAUGGAA: 0.173 ratio
AGCACAACCCCAGCAAAGCUAAGAAAUCCUUGUACAAGUGAACAAAACUGCACCAGCCCAUUUAGCUACAAAAAUGUGCUUAGUCUUACUAAUAAAGGAGAAGUAUUCAAUGAACUUGUU: 0.583 ratio
AGAGAUAAGACAUCCAGGAACAUGCGAGGCUCCCGGAUGAAUGGACUGCCUAGCCCCACUCACAGCGCCCACUGUAGCUUCUACCGAACCAGAACCUUGCAGGCAUUGAGUAAUGAGAAG: 0.136 ratio
GAAUCCUCCCGUGCAAAAUUUUGCAACCUGAAUGCAACAGCAGCAGCAUCUUAGUCACAGUAGGGUAGUUUUGGGGCUCUGUGGCCAGGGUUUUAUUCACAUGCAGGUUUGGAAAAUGUA: 1.88 ratio
ACAGUUAUAUUGUUGAGUUUCAUUUUCAUAUAUUCUUGUAGUGUCUGCUUGCCUGUGACUUCUGGUAAAAUAAAAUAAGCCUUUGAAUUAGCAUGCUAUUUAACAUUAACAUUUUCUAAA: 4.78 ratio
GGCUGCUGGUGACUGUCGGGAGCCGUCUGGAGUUCCCGCCGGAGCGCGGCCAGACUAAUUUUAGAAAAUGCCAAGUAGGAAGUUUGUUGAGGGUGAAGUGGUAAGAGGCCGAUGGCCUGG: 3.36 ratio

Sample 5 — technique: protein binding microarray; form: double-stranded DNA, one strand shown; sample: in vitro; tested at: not given; baseline: not given; direction: higher = stronger binding; endpoint: E-score
Target: Histone acetyltransferase KAT6A, winged helix 1, GST fusion (KAT6A, Homo sapiens, UniProt Q92794, residues 1-85)
Setting: 8-mer, flanks averaged, mean of 2 arrays, mostly near background
Residues (chain): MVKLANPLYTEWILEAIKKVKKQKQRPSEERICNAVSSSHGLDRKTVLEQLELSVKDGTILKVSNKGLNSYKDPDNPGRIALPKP
ATACAATC: -0.124
GATATCCA: -0.242
AATAGATA: -0.223
GTCAATGA: -0.096
ACTATGGG: -0.161
CATGTAGG: -0.14
ACGACCTC: -0.00823
CGACGTTC: 0.00773
ATCCGAAT: 0.0487
AGAGCATG: -0.111
CAGGGTGG: -0.133
CCCCTGGA: -0.172
CATCCCAG: -0.207
ATGTAGCG: 0.163
CCTCATAG: -0.308
CTCCAACA: -0.238
TACCTATA: -0.2
GCAGGCCC: -0.0173
ACTCTGAT: 0.0128
CGTGGTGA: 0.043
CCGGATTC: -0.00287
GGTGGTAC: -0.0557
CTGGTTTA: -0.0844
ACTTGAGG: -0.185
CGCTGACG: 0.356

Some of these lines once more (sample 5):
CGACGTTC: 0.00773
ATCCGAAT: 0.0487
AGAGCATG: -0.111
CAGGGTGG: -0.133
CCCCTGGA: -0.172
CATCCCAG: -0.207
ATGTAGCG: 0.163
